Measured values pooled from the literature.
Each line is one published result; not all experiments were run side by side. Numbers after ± are the reported error.
Cell line: A549

CCN1CCC2(CC1)C/C(=N\NC(=O)Nc1ccccc1)c1ccccc1O2
apoptotic cells (annexin V-FITC/PI; concentration not given, 24 h, Early apoptosis): 28.2%

C[C@H]1O[C@@H]2C3=C(O[C@]2(C)[C@@]1(O)C=O)C(=O)c1c(O)cccc1C3=O
EC50 (cell growth or viability, MTT; 48 h): 3.51 µg/mL

[Cl-].[Cl-].[Ru+2].c1ccc(-c2ccnc3c2ccc2c(-c4ccccc4)ccnc23)cc1.c1cnc2c(c1)ccc1cccnc12.c1cnc2c(c1)ccc1cccnc12
lowest concentration inhibiting OCR (oxygen consumption rate, Seahorse extracellular flux; 1 h, added: indigo light 450 nm, 29.1 J/cm2): 1 µM

CC(=O)c1cccc(NC2C(N)C(NC(=O)N(C)C)(C(C)OC(=O)C(C)(C)C)C(C)(O)C2(O)COC(=O)C(C)(C)C)c1 (stereo not drawn)
EC50 (cell growth or viability): 0.588 µM

CC(=O)N[C@@H](CC[S+](C)[Ru-4]123([S+](C)CC[C@H](NC(C)=O)C(=O)O)[n+]4ccc5ccccc5c4Nc4cccc([n+]41)-c1cccc([n+]12)Nc1c2ccccc2cc[n+]13)C(=O)[O-].F[P-](F)(F)(F)(F)F (stereo partly drawn)
EC50 (cytotoxicity; dark, 6 and 24 h): 11 to 20 µM

COc1cc(CNC(=O)C[C@H](C)CCC=C(C)C)ccc1OCc1cn(-c2ccc(Cl)c(Cl)c2)nn1
cells in G0/G1 phase (flow cytometry propidium iodide; 10 µM, 48 h): 34.3%

FC(F)(F)c1ccnc(-c2cc(C(F)(F)F)ccn2)c1.FC(F)(F)c1ccnc(-c2cc(C(F)(F)F)ccn2)c1.[Cl-].[Cl-].[Ru+2].c1csc(-c2ccc(-c3ccc(-c4ccc(-c5nc6c7cccnc7c7ncccc7c6[nH]5)s4)s3)s2)c1
EC50 (cell growth or viability, resazurin; dark): 120 µM

Nc1cccc[n+]1Cc1cccc(C[n+]2ccccc2N)c1
cell population in SubG0/G1 phase (flow cytometry; 15 µM, 24 h): 5.5%

O=C1Nc2ccccc2/C1=N\Nc1nnc2n1N=C(c1ccc(Cl)cc1)CS2
growth inhibition (10 µM): 18%

Cc1ccc(C(C)C)cc1.Oc1ccccc1C=NNC1=Nc2ccccc2-c2[nH]c3ccc(Br)cc3c2C1.[Cl-].[Cl][Ru+]
inhibition (DNA synthesis, BrdU incorporation; 5 µM, 24 h): ~50%

[Cl-].[Cl][Ru-]1[S+]=C(N2CCCC2)N[N+]1=Cc1ccc(N(c2ccccc2)c2ccccc2)cc1.c1ccccc1
colony formation (10 µM, 24 h, then 10 days growth): inhibited

Cc1ccc2ccc3ccc(C)nc3c2n1.Cc1ccc2ccc3ccc(C)nc3c2n1.Clc1ccc(-c2cc(-c3ccccn3)nn2-c2ccccc2)cc1.[Cl-].[Cl-].[Ru+2]
lowest concentration inhibiting OCR (oxygen consumption rate, Seahorse extracellular flux; 1 h, dark): > 10 µM

Cc1cccc(-c2cccc(C)n2)n1.Cc1cccc(-c2cccc(C)n2)n1.[Cl-].[Cl-].[Ru+2].c1ccc(-c2ccnc3c2ccc2c(-c4ccccc4)ccnc23)cc1
EC50 (cytotoxicity, resazurin; 72 h, light irradiation 5 min, λ>400 nm): 3.9 ± 1.1 µM

CC1=C(Cn2c3cccc(=O)c-3nc3ccccc32)CCC(C)(C)C1
selectivity index (cytotoxicity, WST-8; baseline: IC50 MRC5 over IC50 A549): 1.79

CC/C=C\C/C=C\C/C=C\C/C=C\C/C=C\C/C=C\CCC(=O)Nc1ccn(C2OC(CO)C(O)C2(F)F)c(=O)n1 (stereo not drawn)
GI50 (NCI-60 screen): 0.0326 µM

COCc1nc(C(F)(F)F)[nH]c1-c1cc(C(=O)N2CC(c3ccc(C#N)cc3)C2)c(C)cc1C
inhibition (tubulin palmitoylation, acyl-biotin exchange Western blot, item: palmitoyl-β-tubulin; 50 nM, 72 h): 92%

COc1ccc([C@@H]2CC(=O)c3c(O)cc(O[C@@H]4O[C@H](CO[C@@H]5O[C@@H](C)[C@H](O)[C@@H](O)[C@H]5O)[C@@H](O)[C@H](O)[C@H]4O)cc3O2)cc1O
cell count (trypan blue exclusion; 150 µg/mL, 72 h): 12100 ± 409

[Cl-].[Cl-].[Ru+2].c1ccc(-c2cccc(-c3ccccn3)n2)nc1.c1ccc2nc(-c3ccc4ccccc4n3)ccc2c1
lowest concentration inhibiting OCR (oxygen consumption rate, Seahorse extracellular flux; 1 h, dark): 10 µM

A few entries again:
CC(=O)c1cccc(NC2C(N)C(NC(=O)N(C)C)(C(C)OC(=O)C(C)(C)C)C(C)(O)C2(O)COC(=O)C(C)(C)C)c1 (stereo not drawn)
EC50 (cell growth or viability): 0.588 µM

CC(=O)N[C@@H](CC[S+](C)[Ru-4]123([S+](C)CC[C@H](NC(C)=O)C(=O)O)[n+]4ccc5ccccc5c4Nc4cccc([n+]41)-c1cccc([n+]12)Nc1c2ccccc2cc[n+]13)C(=O)[O-].F[P-](F)(F)(F)(F)F (stereo partly drawn)
EC50 (cytotoxicity; dark, 6 and 24 h): 11 to 20 µM

COc1cc(CNC(=O)C[C@H](C)CCC=C(C)C)ccc1OCc1cn(-c2ccc(Cl)c(Cl)c2)nn1
cells in G0/G1 phase (flow cytometry propidium iodide; 10 µM, 48 h): 34.3%
